Measurements collected from several papers.
Numbered parts are unrelated; each lists some results of a single study.
Sequence of UniProt Q06418 (whole entry, looked up): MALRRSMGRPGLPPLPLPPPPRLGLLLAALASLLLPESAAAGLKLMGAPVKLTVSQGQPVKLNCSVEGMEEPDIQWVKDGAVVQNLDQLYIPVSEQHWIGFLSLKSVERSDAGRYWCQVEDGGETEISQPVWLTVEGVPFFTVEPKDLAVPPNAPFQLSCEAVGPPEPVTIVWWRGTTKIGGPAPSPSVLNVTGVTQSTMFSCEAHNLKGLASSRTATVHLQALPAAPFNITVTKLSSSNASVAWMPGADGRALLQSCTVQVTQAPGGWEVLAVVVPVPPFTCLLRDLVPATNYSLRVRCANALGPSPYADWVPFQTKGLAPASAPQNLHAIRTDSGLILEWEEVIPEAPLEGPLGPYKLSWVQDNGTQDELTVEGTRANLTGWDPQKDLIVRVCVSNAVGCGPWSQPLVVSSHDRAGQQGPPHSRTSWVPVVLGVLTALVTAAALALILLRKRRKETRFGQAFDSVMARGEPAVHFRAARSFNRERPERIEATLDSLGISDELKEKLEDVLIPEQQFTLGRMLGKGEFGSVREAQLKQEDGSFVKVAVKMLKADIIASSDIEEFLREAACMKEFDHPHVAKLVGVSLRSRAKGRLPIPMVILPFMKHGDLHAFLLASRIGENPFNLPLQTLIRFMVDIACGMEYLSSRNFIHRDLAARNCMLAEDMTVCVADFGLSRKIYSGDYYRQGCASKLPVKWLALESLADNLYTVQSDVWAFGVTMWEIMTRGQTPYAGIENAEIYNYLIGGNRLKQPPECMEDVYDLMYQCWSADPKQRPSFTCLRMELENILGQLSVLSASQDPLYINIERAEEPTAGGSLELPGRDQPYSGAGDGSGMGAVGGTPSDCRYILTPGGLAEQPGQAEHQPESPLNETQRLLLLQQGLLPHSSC
Sequence of UniProt P31749 (whole entry, looked up): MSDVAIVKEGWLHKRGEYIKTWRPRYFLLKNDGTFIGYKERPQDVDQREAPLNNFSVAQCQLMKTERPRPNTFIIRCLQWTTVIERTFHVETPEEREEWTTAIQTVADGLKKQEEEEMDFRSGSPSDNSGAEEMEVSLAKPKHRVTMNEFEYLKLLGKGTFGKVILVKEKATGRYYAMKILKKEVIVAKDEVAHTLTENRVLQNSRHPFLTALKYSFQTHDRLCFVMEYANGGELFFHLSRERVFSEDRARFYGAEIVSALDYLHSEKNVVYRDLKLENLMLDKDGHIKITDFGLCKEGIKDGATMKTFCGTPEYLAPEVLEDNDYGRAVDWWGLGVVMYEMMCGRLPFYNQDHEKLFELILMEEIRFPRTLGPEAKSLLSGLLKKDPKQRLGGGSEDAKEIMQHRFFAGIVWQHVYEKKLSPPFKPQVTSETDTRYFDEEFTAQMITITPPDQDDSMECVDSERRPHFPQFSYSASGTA
Sequence of UniProt Q15835 (whole entry, looked up): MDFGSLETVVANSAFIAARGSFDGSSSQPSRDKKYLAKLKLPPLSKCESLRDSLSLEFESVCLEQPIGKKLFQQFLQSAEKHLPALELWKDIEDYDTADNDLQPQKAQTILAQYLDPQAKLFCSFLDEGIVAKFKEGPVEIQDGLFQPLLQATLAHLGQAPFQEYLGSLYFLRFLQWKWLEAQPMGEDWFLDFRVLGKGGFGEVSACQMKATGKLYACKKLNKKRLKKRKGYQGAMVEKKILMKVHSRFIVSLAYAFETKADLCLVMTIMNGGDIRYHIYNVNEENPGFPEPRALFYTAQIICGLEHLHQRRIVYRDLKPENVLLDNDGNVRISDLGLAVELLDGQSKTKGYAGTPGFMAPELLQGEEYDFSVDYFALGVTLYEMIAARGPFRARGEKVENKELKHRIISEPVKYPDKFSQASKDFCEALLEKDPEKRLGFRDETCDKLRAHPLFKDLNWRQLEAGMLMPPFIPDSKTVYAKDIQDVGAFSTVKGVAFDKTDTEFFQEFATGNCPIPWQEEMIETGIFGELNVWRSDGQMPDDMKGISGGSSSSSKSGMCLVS
Sequence of UniProt Q8N5S9 (whole entry, looked up): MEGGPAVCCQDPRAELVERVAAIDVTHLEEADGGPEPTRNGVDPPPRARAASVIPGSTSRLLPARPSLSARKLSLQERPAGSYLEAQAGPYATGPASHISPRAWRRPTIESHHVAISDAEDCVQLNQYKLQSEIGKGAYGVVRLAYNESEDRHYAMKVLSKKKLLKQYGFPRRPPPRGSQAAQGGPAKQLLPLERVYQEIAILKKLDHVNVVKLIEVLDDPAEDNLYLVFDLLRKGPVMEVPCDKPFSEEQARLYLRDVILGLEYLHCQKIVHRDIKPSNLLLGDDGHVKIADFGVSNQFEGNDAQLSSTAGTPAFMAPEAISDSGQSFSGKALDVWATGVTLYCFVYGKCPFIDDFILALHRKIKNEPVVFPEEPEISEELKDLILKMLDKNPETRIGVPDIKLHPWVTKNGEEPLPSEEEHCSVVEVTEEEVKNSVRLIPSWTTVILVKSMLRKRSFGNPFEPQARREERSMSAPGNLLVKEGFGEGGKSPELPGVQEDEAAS
Sequence of UniProt P30291 (whole entry, looked up): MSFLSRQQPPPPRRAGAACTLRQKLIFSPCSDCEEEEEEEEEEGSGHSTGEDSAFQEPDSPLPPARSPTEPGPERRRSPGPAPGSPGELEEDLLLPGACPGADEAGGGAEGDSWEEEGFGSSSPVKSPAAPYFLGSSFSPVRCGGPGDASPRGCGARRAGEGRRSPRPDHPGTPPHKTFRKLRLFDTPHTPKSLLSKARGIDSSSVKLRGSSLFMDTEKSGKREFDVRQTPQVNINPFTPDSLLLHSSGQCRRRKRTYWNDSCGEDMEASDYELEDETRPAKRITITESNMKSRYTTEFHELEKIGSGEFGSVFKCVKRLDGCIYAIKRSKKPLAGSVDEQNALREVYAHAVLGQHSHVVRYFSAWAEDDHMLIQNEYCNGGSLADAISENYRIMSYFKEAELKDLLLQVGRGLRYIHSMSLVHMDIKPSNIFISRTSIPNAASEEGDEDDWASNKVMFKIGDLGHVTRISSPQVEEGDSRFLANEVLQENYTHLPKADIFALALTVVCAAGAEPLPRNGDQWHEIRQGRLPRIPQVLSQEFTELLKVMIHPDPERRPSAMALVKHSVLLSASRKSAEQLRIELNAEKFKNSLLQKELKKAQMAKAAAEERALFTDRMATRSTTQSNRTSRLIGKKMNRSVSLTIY
Sequence of UniProt P42336 (whole entry, unmodified, looked up): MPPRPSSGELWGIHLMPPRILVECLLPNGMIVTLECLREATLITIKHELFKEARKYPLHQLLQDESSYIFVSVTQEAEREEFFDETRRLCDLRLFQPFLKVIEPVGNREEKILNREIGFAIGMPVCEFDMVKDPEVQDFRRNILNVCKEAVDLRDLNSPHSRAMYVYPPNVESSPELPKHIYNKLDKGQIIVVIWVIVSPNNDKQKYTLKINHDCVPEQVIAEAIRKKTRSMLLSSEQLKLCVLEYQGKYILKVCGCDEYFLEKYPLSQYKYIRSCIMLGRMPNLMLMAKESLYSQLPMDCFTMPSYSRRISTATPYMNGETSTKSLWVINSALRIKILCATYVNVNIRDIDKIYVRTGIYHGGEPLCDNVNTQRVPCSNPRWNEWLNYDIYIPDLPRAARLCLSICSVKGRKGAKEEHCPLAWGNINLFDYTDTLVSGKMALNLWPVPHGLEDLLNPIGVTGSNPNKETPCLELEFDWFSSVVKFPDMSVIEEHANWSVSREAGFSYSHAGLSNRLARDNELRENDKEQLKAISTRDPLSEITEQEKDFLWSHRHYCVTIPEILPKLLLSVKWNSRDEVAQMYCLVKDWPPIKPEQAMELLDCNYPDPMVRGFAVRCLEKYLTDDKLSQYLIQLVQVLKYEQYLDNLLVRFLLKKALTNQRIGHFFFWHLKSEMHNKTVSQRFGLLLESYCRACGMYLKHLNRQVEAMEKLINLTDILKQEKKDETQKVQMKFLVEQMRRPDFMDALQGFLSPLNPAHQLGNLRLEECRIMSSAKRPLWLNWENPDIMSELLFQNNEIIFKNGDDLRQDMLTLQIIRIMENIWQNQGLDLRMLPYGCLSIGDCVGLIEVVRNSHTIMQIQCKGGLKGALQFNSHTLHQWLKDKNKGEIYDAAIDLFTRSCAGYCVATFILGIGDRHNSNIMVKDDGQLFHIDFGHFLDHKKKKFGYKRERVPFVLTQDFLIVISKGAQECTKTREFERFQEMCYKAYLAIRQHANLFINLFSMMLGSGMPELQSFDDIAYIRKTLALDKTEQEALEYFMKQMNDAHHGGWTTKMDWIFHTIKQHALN

Block 1 — concentration: 1 µM
Compound: C[C@H](c1cccc(C#N)c1)n1cc(Cl)cc(C(N)=O)c1=N
target | observed | technique | remaining binding
CAMKK1 (Homo sapiens, UniProt Q8N5S9) | cell-free assay | competition with immobilised ligand | 87%
PIK3CA (Homo sapiens, UniProt P42336, E542K) | cell-free assay | competition with immobilised ligand | 77%
Ribosomal protein S6 kinase alpha-4, C-terminal kinase domain (RPS6KA4, Homo sapiens, UniProt O75676) | cell-free assay | competition with immobilised ligand | 69%
PRKAA1 (Homo sapiens, UniProt Q13131) | cell-free assay | competition with immobilised ligand | 92%
FLT4 (Homo sapiens, UniProt P35916) | cell-free assay | competition with immobilised ligand | 80%
WEE1 (Homo sapiens, UniProt P30291) | cell-free assay | competition with immobilised ligand | 100%
MAP2K4 (Homo sapiens, UniProt P45985) | cell-free assay | competition with immobilised ligand | 100%
GRK1 (Homo sapiens, UniProt Q15835) | cell-free assay | competition with immobilised ligand | 74%
CSNK1D (Homo sapiens, UniProt P48730) | cell-free assay | competition with immobilised ligand | 100%
Tyrosine-protein kinase ABL1, phosphorylated (ABL1, Homo sapiens, UniProt P00519, F317I) | binding |  | 89%
AKT1 (Homo sapiens, UniProt P31749) | cell-free assay | competition with immobilised ligand | 100%
SIK3 (Homo sapiens, UniProt Q9Y2K2) | cell-free assay | competition with immobilised ligand | 100%
BLK (Homo sapiens, UniProt P51451) | cell-free assay | competition with immobilised ligand | 78%
TYRO3 (Homo sapiens, UniProt Q06418) | cell-free assay | competition with immobilised ligand | 33%
STK32A (Homo sapiens, UniProt Q8WU08) | cell-free assay | competition with immobilised ligand | 100%
TLK2 (Homo sapiens, UniProt Q86UE8) | cell-free assay | competition with immobilised ligand | 100%
PAK1 (Homo sapiens, UniProt Q13153) | cell-free assay | competition with immobilised ligand | 100%
PRKCH (Homo sapiens, UniProt P24723) | cell-free assay | competition with immobilised ligand | 100%

Block 2 — organism: Sarcocystis neurona; observed: parasite activity; concentration: 10 µM; time: 96 h
SMILES | activity class
CN(C)CCN(Cc1ccccc1)c1ccccn1 | inactive
CCN(CC)CC(=O)Nc1c(C)cccc1C | inactive
CCOC(=O)[C@H](CCc1ccccc1)N[C@@H](C)C(=O)N1[C@H](C(=O)O)C[C@@H]2CCC[C@@H]21 | inactive
CCOC(=O)[C@H](CCc1ccccc1)N[C@@H](C)C(=O)N1CCC[C@H]1C(=O)O | inactive
Nc1ccn([C@H]2CC[C@@H](CO)O2)c(=O)n1 | inactive
C[C@@](Cc1ccc(O)c(O)c1)(NN)C(=O)O | inactive
NCc1ccc(S(N)(=O)=O)cc1 | inactive
COc1ccccc1N1CCN(CC(O)COc2cccc3ccccc23)CC1 (stereo not drawn) | inactive
CO[C@H]1/C=C/O[C@@]2(C)Oc3c(C)c(O)c4c(O)c(c(/C=N/N5CCN(C)CC5)c(O)c4c3C2=O)NC(=O)/C(C)=C\C=C\[C@H](C)[C@H](O)[C@@H](C)[C@@H](O)[C@@H](C)[C@H](OC(C)=O)[C@@H]1C | inactive
C[C@H]1[C@H](OC(=O)CCC(=O)O)O[C@@H]2O[C@@]3(C)CC[C@H]4[C@H](C)CC[C@@H]1[C@@]24OO3 | active

Block 3 — species: human; matrix: microsomes or S9; concentration: 2 µM; time: 0.5 h
SMILES | remaining compound
COCCc1noc(CN2CC[C@H]3[C@H](C2)OCc2cnnn23)n1 | 95.8%
Cc1cc(C)n(Cc2nnc(Nc3ccccc3)o2)n1 | 99.2%
N#Cc1ccc2nc(N3CCc4c(ncn4-c4ccccc4)C3)ccc2c1 | > 100%
O=C(COc1ncccn1)NCCNc1cc(-n2cccn2)ncn1 | 94.6%
COc1ccc2[nH]cc(CCN3C(=O)c4[nH]nc(-c5ccco5)c4C3c3cccc(O)c3)c2c1 (stereo not drawn) | 4.93%
O=C1C2CC=CCC2C(O)=NN1c1cccc(F)c1 (stereo not drawn) | > 99.9%
CC(C)Nc1ncc2scc(COc3cccc4ncccc34)c2n1 | 9.12%
CC(C)Cn1c(C(C)C)nnc1N1C[C@@H]2CCS(=O)(=O)[C@@H]2C1 | 89.4%

Block 4 — observed: enzyme activity; mode: inhibitor; concentration: 0.5 µM; relative to: control
Target: SRSF protein kinase 2 (SRPK2, Homo sapiens, UniProt P78362)
Sequence of UniProt P78362 (whole entry, looked up): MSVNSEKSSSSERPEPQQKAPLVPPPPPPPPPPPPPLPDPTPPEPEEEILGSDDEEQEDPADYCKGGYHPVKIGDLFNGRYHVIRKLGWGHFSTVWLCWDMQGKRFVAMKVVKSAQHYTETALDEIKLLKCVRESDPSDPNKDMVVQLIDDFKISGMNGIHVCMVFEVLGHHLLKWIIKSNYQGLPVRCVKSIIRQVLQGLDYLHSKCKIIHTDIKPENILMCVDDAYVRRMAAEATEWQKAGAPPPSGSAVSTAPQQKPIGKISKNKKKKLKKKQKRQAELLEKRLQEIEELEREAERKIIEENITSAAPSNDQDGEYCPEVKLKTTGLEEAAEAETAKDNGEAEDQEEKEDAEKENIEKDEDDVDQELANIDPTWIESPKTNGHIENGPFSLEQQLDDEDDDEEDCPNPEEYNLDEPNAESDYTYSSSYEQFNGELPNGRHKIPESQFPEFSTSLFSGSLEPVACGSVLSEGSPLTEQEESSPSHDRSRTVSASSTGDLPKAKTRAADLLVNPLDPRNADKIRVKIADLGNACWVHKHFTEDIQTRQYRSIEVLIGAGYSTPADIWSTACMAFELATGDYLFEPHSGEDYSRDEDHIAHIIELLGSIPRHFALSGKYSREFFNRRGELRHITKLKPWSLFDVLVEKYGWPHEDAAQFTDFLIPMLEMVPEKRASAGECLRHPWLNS
Structure (SMILES) | remaining activity [%]
Cc1cc(Nc2cc(N3CCN(C)CC3)nc(Sc3ccc(NC(=O)C4CC4)cc3)n2)[nH]n1 | 94.6
O=C(c1cc2cc(O)ccc2[nH]1)c1cc2cc(O)ccc2[nH]1 | 97.1
Oc1cccc(-c2nc(N3CCOCC3)c3oc4ncccc4c3n2)c1 | 97.3
COc1ccc(COc2ccc(Cc3cnc(N)nc3N)cc2OC)cc1 | 87.4
CN(C)S(=O)(=O)c1ccc2c(c1)/C(=C/c1cc3c([nH]1)CCCC3)C(=O)N2 | 50.3
O=C1Nc2ccccc2/C1=C\c1c(Cl)[nH]c2ccccc12 | 94.4
O=C1NC(=O)c2c1c1c3ccccc3[nH]c1n1cncc21 | 80.2
CCCCc1c(-c2ccc(OC)cc2)[nH]c2nccnc12 | 105
O=c1cc(N2CCOCC2)oc2c(-c3ccccc3)cccc12 | 98.2
COc1ccc2c(c1)c(C1=C(c3c[nH]c4ccccc34)C(=O)NC1=O)cn2CCCN(C)C | 88
N#Cc1cnc2cnc(NCc3cccnc3)cc2c1Nc1ccc(F)c(Cl)c1 | 101
CN1CCN(c2ccc3nc(-c4c(N)c5c(F)cccc5[nH]c4=O)[nH]c3c2)CC1 | 99.9
O=C1Nc2ccc(Br)cc2/C1=C/c1cc2c([nH]1)CCCC2 | 90.6
c1ccc(-c2n[nH]c3c2oc2ccccc23)cc1 | 95
O=C1NC(=O)c2c1c1c3ccccc3[nH]c1c1[nH]c3cc(Br)ccc3c21 | 96.2
COc1cccc(-c2cc(=O)c3ccccc3o2)c1N | 91.7
CCCNC(=O)Nc1ccc(Oc2ncnc3cc(OC)c(OC)cc23)cc1Cl | 91.1
Cc1ccc(S(=O)(=O)/C=C/C#N)cc1 | 108
